Measurements pooled from the literature.
Lines come from different studies, so protocols differ. ± marks the error that the study gave.
Sequence of UniProt P32241 (whole entry, looked up): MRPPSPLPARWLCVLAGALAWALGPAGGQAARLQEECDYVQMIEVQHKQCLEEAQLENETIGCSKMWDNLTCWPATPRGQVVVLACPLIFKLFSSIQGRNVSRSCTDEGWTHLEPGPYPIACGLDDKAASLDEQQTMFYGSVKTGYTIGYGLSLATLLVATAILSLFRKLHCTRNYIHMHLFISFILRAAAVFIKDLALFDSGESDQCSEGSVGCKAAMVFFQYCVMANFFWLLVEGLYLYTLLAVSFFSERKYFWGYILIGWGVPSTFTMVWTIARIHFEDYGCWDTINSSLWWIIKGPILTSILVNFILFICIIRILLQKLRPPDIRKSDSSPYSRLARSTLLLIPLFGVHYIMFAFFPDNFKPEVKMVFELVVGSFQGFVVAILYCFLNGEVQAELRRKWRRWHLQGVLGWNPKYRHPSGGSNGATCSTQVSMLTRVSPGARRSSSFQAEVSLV
Sequence of UniProt Q96DB2 (whole entry, looked up): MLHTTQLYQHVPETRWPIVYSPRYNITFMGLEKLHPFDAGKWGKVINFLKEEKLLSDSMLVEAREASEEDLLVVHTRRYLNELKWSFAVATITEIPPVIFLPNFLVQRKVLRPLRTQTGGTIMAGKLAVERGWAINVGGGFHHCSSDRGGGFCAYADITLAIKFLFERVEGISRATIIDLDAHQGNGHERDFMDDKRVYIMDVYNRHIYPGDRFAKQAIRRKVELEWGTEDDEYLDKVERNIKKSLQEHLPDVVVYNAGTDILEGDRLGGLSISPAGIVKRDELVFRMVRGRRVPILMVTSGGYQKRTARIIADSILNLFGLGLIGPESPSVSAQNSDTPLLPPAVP
Sequence of UniProt P54756 (whole entry, looked up): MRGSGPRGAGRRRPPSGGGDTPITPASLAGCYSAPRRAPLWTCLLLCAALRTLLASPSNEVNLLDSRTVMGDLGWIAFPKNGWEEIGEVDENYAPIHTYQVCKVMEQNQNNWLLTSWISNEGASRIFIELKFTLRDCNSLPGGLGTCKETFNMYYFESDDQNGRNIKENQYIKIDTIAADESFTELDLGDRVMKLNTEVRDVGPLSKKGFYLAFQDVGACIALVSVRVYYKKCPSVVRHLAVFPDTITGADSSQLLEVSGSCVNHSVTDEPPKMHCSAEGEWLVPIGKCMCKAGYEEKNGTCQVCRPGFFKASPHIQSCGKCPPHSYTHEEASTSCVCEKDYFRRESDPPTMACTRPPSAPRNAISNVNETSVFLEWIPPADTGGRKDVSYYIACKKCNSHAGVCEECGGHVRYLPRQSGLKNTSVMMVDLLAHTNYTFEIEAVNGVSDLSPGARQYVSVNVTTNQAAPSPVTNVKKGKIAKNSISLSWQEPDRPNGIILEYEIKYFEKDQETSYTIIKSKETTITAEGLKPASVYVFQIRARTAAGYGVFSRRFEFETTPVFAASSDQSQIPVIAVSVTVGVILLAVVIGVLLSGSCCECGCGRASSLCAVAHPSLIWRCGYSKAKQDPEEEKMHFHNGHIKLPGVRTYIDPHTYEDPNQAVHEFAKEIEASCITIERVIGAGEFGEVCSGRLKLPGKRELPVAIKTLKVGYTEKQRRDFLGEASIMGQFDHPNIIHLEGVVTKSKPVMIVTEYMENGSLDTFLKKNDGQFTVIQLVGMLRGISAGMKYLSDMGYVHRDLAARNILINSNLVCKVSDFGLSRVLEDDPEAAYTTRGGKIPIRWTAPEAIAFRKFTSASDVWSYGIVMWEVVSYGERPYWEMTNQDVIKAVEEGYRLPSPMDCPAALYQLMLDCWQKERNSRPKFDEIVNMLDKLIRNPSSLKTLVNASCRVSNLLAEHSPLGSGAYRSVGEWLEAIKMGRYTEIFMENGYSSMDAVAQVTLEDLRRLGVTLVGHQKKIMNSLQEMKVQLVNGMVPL
Sequence of UniProt P41240 (whole entry, looked up): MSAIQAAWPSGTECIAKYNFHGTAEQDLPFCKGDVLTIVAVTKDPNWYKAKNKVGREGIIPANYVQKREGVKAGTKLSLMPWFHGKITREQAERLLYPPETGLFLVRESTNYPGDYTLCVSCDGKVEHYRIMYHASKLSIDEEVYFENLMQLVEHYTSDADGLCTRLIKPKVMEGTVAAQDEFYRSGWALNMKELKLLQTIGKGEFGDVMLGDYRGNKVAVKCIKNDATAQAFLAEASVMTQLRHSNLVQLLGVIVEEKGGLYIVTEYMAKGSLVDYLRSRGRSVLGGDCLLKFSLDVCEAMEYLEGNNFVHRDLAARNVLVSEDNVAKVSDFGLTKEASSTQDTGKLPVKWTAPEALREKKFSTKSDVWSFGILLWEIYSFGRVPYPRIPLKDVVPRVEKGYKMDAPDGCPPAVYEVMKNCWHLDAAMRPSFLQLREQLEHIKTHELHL
Sequence of UniProt P30550 (whole entry, looked up): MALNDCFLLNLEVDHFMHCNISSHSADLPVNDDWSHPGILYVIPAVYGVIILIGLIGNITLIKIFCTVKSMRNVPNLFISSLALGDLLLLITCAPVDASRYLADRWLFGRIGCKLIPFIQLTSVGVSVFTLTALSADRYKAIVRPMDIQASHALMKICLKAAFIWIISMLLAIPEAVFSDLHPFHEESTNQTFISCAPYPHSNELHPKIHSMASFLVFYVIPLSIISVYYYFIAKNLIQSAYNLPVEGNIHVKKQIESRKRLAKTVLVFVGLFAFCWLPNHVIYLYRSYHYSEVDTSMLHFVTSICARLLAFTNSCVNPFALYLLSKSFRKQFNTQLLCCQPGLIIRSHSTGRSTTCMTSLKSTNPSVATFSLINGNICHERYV
Sequence of UniProt Q9NTG7 (whole entry, looked up): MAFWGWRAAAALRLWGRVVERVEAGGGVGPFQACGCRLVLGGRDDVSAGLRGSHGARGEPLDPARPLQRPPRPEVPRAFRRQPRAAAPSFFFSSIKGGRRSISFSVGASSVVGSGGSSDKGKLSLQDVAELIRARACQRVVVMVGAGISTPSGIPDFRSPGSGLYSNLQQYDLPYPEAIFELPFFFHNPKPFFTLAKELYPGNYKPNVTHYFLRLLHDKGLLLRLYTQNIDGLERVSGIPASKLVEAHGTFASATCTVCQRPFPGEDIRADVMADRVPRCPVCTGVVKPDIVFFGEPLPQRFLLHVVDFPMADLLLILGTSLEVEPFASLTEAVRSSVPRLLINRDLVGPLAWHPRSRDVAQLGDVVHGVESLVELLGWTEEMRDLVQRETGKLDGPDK
Sequence of UniProt Q9UUJ1 (whole entry, looked up): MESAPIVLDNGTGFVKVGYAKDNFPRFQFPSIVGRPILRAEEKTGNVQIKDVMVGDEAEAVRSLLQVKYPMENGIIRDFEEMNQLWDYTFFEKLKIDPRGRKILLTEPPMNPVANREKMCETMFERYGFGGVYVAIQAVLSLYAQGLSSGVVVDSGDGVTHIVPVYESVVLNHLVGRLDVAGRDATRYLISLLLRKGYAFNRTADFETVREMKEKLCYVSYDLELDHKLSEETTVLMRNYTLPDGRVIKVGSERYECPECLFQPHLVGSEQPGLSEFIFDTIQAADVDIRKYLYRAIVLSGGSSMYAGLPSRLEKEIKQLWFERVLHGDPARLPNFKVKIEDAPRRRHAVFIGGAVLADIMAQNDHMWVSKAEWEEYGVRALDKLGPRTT
Sequence of UniProt Q01959 (whole entry, looked up): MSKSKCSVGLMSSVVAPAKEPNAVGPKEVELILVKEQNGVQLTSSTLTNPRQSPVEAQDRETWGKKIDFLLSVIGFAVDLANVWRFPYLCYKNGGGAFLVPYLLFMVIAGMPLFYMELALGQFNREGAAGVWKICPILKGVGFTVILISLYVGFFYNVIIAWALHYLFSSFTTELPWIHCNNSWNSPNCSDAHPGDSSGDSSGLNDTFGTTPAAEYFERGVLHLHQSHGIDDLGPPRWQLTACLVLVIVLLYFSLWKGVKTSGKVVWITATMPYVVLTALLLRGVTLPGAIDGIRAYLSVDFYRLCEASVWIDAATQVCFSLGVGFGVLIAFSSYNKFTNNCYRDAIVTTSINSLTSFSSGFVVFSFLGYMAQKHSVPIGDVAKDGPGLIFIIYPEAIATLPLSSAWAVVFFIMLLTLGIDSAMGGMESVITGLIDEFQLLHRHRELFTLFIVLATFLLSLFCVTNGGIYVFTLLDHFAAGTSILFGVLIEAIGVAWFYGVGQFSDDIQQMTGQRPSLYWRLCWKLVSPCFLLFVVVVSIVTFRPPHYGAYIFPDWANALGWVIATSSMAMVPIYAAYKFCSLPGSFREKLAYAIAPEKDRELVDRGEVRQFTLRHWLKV
Sequence of UniProt O95838 (whole entry, looked up): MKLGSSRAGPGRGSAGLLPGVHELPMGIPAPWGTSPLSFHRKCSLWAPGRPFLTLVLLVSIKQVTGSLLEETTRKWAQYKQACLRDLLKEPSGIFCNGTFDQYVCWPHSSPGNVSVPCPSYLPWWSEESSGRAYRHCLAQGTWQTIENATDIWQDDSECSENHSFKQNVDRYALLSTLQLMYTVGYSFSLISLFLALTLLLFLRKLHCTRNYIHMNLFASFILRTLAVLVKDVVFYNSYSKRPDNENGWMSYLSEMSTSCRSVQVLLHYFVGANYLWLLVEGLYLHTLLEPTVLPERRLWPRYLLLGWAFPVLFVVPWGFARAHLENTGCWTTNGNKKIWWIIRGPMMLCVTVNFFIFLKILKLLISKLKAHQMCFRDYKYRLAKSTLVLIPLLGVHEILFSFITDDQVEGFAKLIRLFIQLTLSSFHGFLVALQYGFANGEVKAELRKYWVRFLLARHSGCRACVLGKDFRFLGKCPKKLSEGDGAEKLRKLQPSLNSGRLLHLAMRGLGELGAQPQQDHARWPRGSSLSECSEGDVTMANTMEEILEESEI

SMILES	target	assay	test system	conditions	IC50
CCCCCCCC(=O)OCCN1CCN(c2cc(Nc3ncc(C(=O)Nc4c(C)cccc4Cl)s3)nc(C)n2)CC1	CSK (Homo sapiens, UniProt P41240)	enzyme activity, inhibitor	–	–	600 nM
O=C(CNc1nc(Cl)nc(NNC(=O)c2ccc(Nc3nc(Nc4ccc(C(=O)NNc5nc(Cl)nc(NCC(=O)NO)n5)cc4)nc(Nc4ccc(C(=O)NNc5nc(Cl)nc(NCC(=O)NO)n5)cc4)n3)cc2)n1)NO	MMP9 (Homo sapiens, UniProt P14780)	enzyme activity, inhibitor, absorbance	–	–	243 nM
CC[C@H](C)[C@H](NC(=O)[C@H](Cc1ccccc1)NC(=O)[C@H](CC(=O)O)NC(=O)[C@H](CCCNC(=N)N)NC(=O)[C@H](C)NC(=O)[C@H](C)NC(=O)[C@H](CC(C)C)NC(=O)[C@H](CC(N)=O)NC(=O)[C@H](CC(=O)O)NC(=O)[C@H](CC(C)C)NC(=O)[C@@H](NC(=O)[C@@H](NC(=O)[C@H](CC(N)=O)NC(=O)[C@H](CCSC)NC(=O)[C@H](CCC(=O)O)NC(=O)[C@H](CC(=O)O)NC(=O)[C@H](CO)NC(=O)[C@H](Cc1ccccc1)NC(=O)[C@H](CO)NC(=O)[C@@H](C)NC(=O)[C@H](CC(=O)O)NC(=O)[C@H](C)NC(=O)[C@@H](N)Cc1c[nH]cn1)[C@@H](C)O)[C@@H](C)CC)C(=O)N[C@@H](CC(N)=O)C(=O)N[C@@H](Cc1c[nH]c2ccccc12)C(=O)N[C@@H](CC(C)C)C(=O)N[C@H](C(=O)N[C@@H](CCC(N)=O)C(=O)N[C@H](C(=O)N[C@@H](CCCCN)C(=O)N[C@H](C(=O)N[C@H](C(=O)N[C@@H](CC(=O)O)C(N)=O)[C@@H](C)O)[C@@H](C)CC)[C@@H](C)O)[C@@H](C)CC	GLP2R (Homo sapiens, UniProt O95838)	–	–	–	98 nM
C[C@H](CC(=O)C[C@@H](C)[C@H]1C[C@H](O)[C@@]2(C)C3=C(C(=O)C[C@]12C)[C@@]1(C)CCC(=O)C(C)(C)[C@@H]1C[C@@H]3O)C(=O)O	alpha-amylase	inhibitor	–	–	56.2 ± 2.38 µg/mL
Cc1[nH]c2ccccc2c1CCNC(=O)c1ccccc1F	act2/arp2 (Schizosaccharomyces pombe, UniProt P32390+Q9UUJ1)	actin polymerization, inhibitor, pyrenyl-actin polymerization	–	with: N-WASp VCA	5000 nM
CNC(=O)C1CCN(c2ccccc2NC(=O)c2ccc(-c3ccccc3C)c(C)c2)CC1	EPHA5 (Homo sapiens, UniProt P54756)	target engagement in cells, BRET	–	–	3770 nM
COCCn1cc(COc2cccc(Cc3cnc(NC(=O)C(C)c4ccc(CC(C)C)cc4)s3)c2)nn1 (centres unmarked)	SIRT3 (Homo sapiens, UniProt Q9NTG7)	enzyme activity, inhibitor, fluorescence	–	–	> 100000 nM
CC[C@H](C)[C@H](NC(=O)CNC(=O)C1CCN(C(=O)[C@H](CO)NC(=O)[C@@H](N)Cc2c[nH]cn2)CC1)C(=O)N[C@@H](Cc1ccccc1)C(=O)N[C@H](C(=O)N[C@@H](CC(=O)O)C(=O)N[C@@H](CO)C(=O)N[C@@H](Cc1ccc(O)cc1)C(=O)N[C@@H](CO)C(=O)N[C@@H](CCCNC(=N)N)C(=O)N[C@@H](Cc1ccc(O)cc1)C(=O)N[C@@H](CCCNC(=N)N)C(=O)N[C@@H](CCCCN)C(=O)NC(C)(C)C(=O)N[C@@H](C)C(=O)N[C@@H](C)C(=O)N[C@H](C(=O)N[C@@H](CCCCN)C(=O)N[C@@H](CCCCN)C(=O)N[C@@H](Cc1ccc(O)cc1)C(=O)N[C@@H](CC(C)C)C(=O)N[C@@H](C)C(=O)N[C@@H](C)C(=O)N[C@H](C(=O)N[C@@H](CC(C)C)C(=O)NC(C)(C)C(=O)N[C@@H](CCCCN)C(=O)N[C@@H](CCCNC(=N)N)C(=O)N[C@@H](Cc1ccc(O)cc1)C(=O)N[C@@H](CCCCN)C(=O)N[C@@H](CCC(N)=O)C(=O)N[C@@H](CCCCN)C(=O)N[C@H](C(=O)N[C@@H](CCCCN)C(=O)N[C@@H](CC(N)=O)C(=O)N[C@H](CCCCN)C(N)=O)C(C)C)C(C)C)C(C)C)[C@@H](C)O	VIPR1 (Homo sapiens, UniProt P32241)	ligand displacement, radioligand	–	–	> 1000 nM
CSCC[C@H](NC(=O)[C@H](CC(C)C)NC(=O)[C@H](Cc1c[nH]cn1)NC(=O)[C@@H](C)NC(=O)[C@@H](NC(=O)[C@H](C)NC(=O)[C@H](Cc1c[nH]c2ccccc12)NC(=O)[C@H](CCC(N)=O)NC(=O)[C@H](CC(N)=O)NC(=O)CNC(=O)[C@H](CC(C)C)NC(=O)[C@H](CCCNC(=N)N)NC(=O)[C@H](CCC(N)=O)NC(=O)[C@@H]1CCC(=O)N1)C(C)C)C(N)=O	GRPR (Homo sapiens, UniProt P30550)	ligand displacement in cells, radioligand	–	–	0.54 nM
CC(C)CCC[C@@H](C)[C@H]1CC[C@H]2[C@@H]3CC=C4C[C@@H](OS(=O)(=O)O)CC[C@]4(C)[C@H]3CC[C@]12C	Prothrombin (F2, Homo sapiens, UniProt P00734)	enzyme activity, inhibitor	–	pH 7.4, 25 °C, 0.02% Tween 80, with: Spectrozyme TH	280000 ± 7100 nM
CCOc1cncc(-c2ccc(NC(=O)C(CC)c3ccnc(NS(=O)(=O)C4CC4)n3)nc2)n1 (centres unmarked)	CTP synthase 2 (CTPS2, Homo sapiens, UniProt Q9NRF8, T250I)	cell growth	CTPS-null Jurkat expressing CTPS2	3 d	27 nM
O=c1c2ccccc2sn1-c1ccccc1	HDAC11 (Homo sapiens, UniProt Q96DB2)	enzyme activity, inhibitor	–	–	> 10000 nM
COc1ccc2cc(C(=O)NCCCN3CCC(Cc4ccccc4)CC3)ccc2c1	SLC6A3 (Homo sapiens, UniProt Q01959)	transporter uptake, inhibitor, radiometric	–	–	> 10000 nM
CCCC[C@H](NC(C)=O)C(=O)N[C@@H](CO)C(=O)N[C@H](C(=O)N1CCC[C@H]1C(=O)N[C@]1(C)CCCCCCC=CCCC[C@@](C)(C(=O)N[C@@H](Cc2ccccc2)C(=O)N[C@@H](CCCCN)C(=O)N[C@@H](CCCNC(=N)N)C(=O)N[C@@H](CC(C)C)C(=O)N[C@@H](CCC(N)=O)C(N)=O)NC(=O)[C@H](CCCNC(=N)N)NC(=O)[C@H](CCCC)NC(=O)[C@H](CC(C)C)NC(=O)[C@H](CCCNC(=N)N)NC(=O)[C@H](CCCNC(=N)N)NC(=O)[C@H](CCCNC(=N)N)NC1=O)[C@@H](C)O	UBA1 (Homo sapiens, UniProt P22314)	enzyme activity, inhibitor	–	–	2300 nM

Repeated from above:
SMILES	target	assay	test system	conditions	IC50
CCCC[C@H](NC(C)=O)C(=O)N[C@@H](CO)C(=O)N[C@H](C(=O)N1CCC[C@H]1C(=O)N[C@]1(C)CCCCCCC=CCCC[C@@](C)(C(=O)N[C@@H](Cc2ccccc2)C(=O)N[C@@H](CCCCN)C(=O)N[C@@H](CCCNC(=N)N)C(=O)N[C@@H](CC(C)C)C(=O)N[C@@H](CCC(N)=O)C(N)=O)NC(=O)[C@H](CCCNC(=N)N)NC(=O)[C@H](CCCC)NC(=O)[C@H](CC(C)C)NC(=O)[C@H](CCCNC(=N)N)NC(=O)[C@H](CCCNC(=N)N)NC(=O)[C@H](CCCNC(=N)N)NC1=O)[C@@H](C)O	UBA1 (Homo sapiens, UniProt P22314)	enzyme activity, inhibitor	–	–	2300 nM
